Measurements collected from several papers.
Numbers after ± are the reported error.
Target: Proteasome Macropain subunit MB1 (PSMB5, Homo sapiens, UniProt P28074)
Chain of UniProt P28074 (whole entry, looked up): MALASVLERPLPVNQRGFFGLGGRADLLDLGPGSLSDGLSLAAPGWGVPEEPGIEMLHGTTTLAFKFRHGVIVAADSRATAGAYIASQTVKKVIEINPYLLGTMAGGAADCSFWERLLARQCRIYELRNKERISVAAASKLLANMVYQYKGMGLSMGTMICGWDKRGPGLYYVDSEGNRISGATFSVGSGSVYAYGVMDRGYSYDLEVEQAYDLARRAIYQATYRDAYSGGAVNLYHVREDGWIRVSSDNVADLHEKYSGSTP
Action: inhibitor

SMILES | assay | test system | conditions | IC50 [nM]
C=C(NC(=O)C(=C)NC(=O)c1csc(C2=NC3c4csc(n4)C4NC(=O)c5csc(n5)C(C(C)(O)C(C)O)NC(=O)C5CSC(=N5)C(=CC)NC(=O)C(C(C)O)NC(=O)c5csc(n5)C3(CC2)NC(=O)C(CCSC)NC(=O)C(=C)NC(=O)C(C)NC(=O)C(C(C)CC)NC2C=Cc3c(C(C)O)cc(nc3C2O)C(=O)OC4C)n1)C(N)=O (centres unmarked) | chymotrypsin-like activity | purified 20S proteasome | 15 min preincubation, 37 °C, together with: Suc-Leu-Leu-Val-Tyr-AMC substrate | > 590
CCCCCCCCC/C=C/C=C/C(=O)N[C@H](C(=O)N[C@H]1C[C@@H](O)CCNC(=O)/C=C/[C@H](C)NC1=O)[C@@H](C)O | chymotrypsin-like activity | human constitutive proteasome | together with: Suc-LLVY-AMC | 2.9
C=C(NC(=O)C(=C)NC(=O)c1csc(C2=NC3c4csc(n4)C4NC(=O)c5csc(n5)C(C(C)(O)C(C)O)NC(=O)C5CSC(=N5)C(=CC)NC(=O)C(C(C)O)NC(=O)c5csc(n5)C3(CC2)NC(=O)C(C)NC(=O)C(=C)NC(=O)C(Cc2ccccc2)NC(=O)C(C(C)CC)NC2C=Cc3c(C(C)O)cc(nc3C2O)C(=O)OC4C)n1)C(N)=O (centres unmarked) | chymotrypsin-like activity | purified human 20S proteasome | 37 °C, 15 min preincubation, together with: Suc-Leu-Leu-Val-Tyr-AMC | 960 ± 30
C=C(NC(=O)C(=C)NC(=O)c1csc(C2=NC3c4csc(n4)C4NC(=O)c5csc(n5)C(C(C)(O)C(C)O)NC(=O)C5CSC(=N5)C(=CC)NC(=O)C(C(C)O)NC(=O)c5csc(n5)C3(CC2)NC(=O)C(C(C)C)NC(=O)C(=C)NC(=O)C(C)NC(=O)C(C(C)CC)NC2C=Cc3c(C(C)O)cc(nc3C2O)C(=O)OC4C)n1)C(N)=O (centres unmarked) | chymotrypsin-like activity | purified 20S proteasome | 15 min preincubation, 37 °C, together with: Suc-Leu-Leu-Val-Tyr-AMC substrate | 490 ± 30
CC(C)C[C@@H](/C=C/S(C)(=O)=O)NC(=O)[C@H](CC(C)C)NC(=O)[C@@H](NC(=O)N[C@H](C(=O)NCc1ccccc1)C(C)C)C(C)C | active site labelling, probe competition gel | HEK-293T cell lysate | 1 h, 37 °C, together with: activity-based probe 0.5 µM | 170
O=C(N[C@@H](Cc1coc2ccccc12)B(O)O)[C@@H]1C[C@H]2CC[C@@H]1O2 | enzyme activity | human whole blood | 2 h, 37 °C, together with: Suc-LLVY-R110 | 13700
CC(C)C[C@@H](/C=C/S(C)(=O)=O)NC(=O)[C@H](CC(C)C)NC(=O)[C@@H](NC(=O)N[C@H](C(=O)OC(C)(C)C)C(C)C)C(C)C | active site labelling, probe competition gel | HEK-293T cell lysate | 1 h, 37 °C, together with: activity-based probe 0.5 µM | 230
C=C(NC(=O)C(=C)NC(=O)c1csc(C2=NC3c4csc(n4)C4NC(=O)c5csc(n5)C(C(C)(O)C(C)O)NC(=O)C5CSC(=N5)C(=CC)NC(=O)C(C(C)O)NC(=O)c5csc(n5)C3(CC2)NC(=O)C(C)NC(=O)C(=C)NC(=O)C(=CC)NC(=O)C(C(C)CC)NC2C=Cc3c(C(C)O)cc(nc3C2O)C(=O)OC4C)n1)C(N)=O (centres unmarked) | chymotrypsin-like activity | purified human 20S proteasome | 37 °C, 15 min preincubation, together with: Suc-Leu-Leu-Val-Tyr-AMC | 3100 ± 300
C=C(NC(=O)C(=C)NC(=O)c1csc(C2=NC3c4csc(n4)C4NC(=O)c5csc(n5)C(C(C)(O)C(C)O)NC(=O)C5CSC(=N5)C(=CC)NC(=O)C(C(C)O)NC(=O)c5csc(n5)C3(CC2)NC(=O)C(Cc2c[nH]c3ccccc23)NC(=O)C(=C)NC(=O)C(C)NC(=O)C(C(C)CC)NC2C=Cc3c(C(C)O)cc(nc3C2O)C(=O)OC4C)n1)C(N)=O (centres unmarked) | chymotrypsin-like activity | purified 20S proteasome | 15 min preincubation, 37 °C, together with: Suc-Leu-Leu-Val-Tyr-AMC substrate | > 190
C=C(NC(=O)C(=C)NC(=O)c1csc(C2=NC3c4csc(n4)C4NC(=O)c5csc(n5)C(C(C)(O)C(C)O)NC(=O)C5CSC(=N5)C(=CC)NC(=O)C(C(C)O)NC(=O)c5csc(n5)C3(CC2)NC(=O)C(C)NC(=O)C(=C)NC(=O)C(CCSC)NC(=O)C(C(C)CC)NC2C=Cc3c(C(C)O)cc(nc3C2O)C(=O)OC4C)n1)C(N)=O (centres unmarked) | chymotrypsin-like activity | purified human 20S proteasome | 37 °C, 15 min preincubation, together with: Suc-Leu-Leu-Val-Tyr-AMC | 620 ± 10
C#CCCNC(=O)[C@@H](NC(=O)N[C@H](C(=O)N[C@H]1/C=C/CCNC(=O)/C=C/[C@H](C(C)C)NC1=O)C(C)C)C(C)C | chymotrypsin-like activity | human constitutive proteasome | together with: Suc-LLVY-AMC | 10

Repeated from above:
SMILES | assay | test system | conditions | IC50 [nM]
C=C(NC(=O)C(=C)NC(=O)c1csc(C2=NC3c4csc(n4)C4NC(=O)c5csc(n5)C(C(C)(O)C(C)O)NC(=O)C5CSC(=N5)C(=CC)NC(=O)C(C(C)O)NC(=O)c5csc(n5)C3(CC2)NC(=O)C(Cc2c[nH]c3ccccc23)NC(=O)C(=C)NC(=O)C(C)NC(=O)C(C(C)CC)NC2C=Cc3c(C(C)O)cc(nc3C2O)C(=O)OC4C)n1)C(N)=O (centres unmarked) | chymotrypsin-like activity | purified 20S proteasome | 15 min preincubation, 37 °C, together with: Suc-Leu-Leu-Val-Tyr-AMC substrate | > 190
